Measurements of several laboratories.
± gives the spread as reported.
Sequence of UniProt P21729 (whole entry, looked up): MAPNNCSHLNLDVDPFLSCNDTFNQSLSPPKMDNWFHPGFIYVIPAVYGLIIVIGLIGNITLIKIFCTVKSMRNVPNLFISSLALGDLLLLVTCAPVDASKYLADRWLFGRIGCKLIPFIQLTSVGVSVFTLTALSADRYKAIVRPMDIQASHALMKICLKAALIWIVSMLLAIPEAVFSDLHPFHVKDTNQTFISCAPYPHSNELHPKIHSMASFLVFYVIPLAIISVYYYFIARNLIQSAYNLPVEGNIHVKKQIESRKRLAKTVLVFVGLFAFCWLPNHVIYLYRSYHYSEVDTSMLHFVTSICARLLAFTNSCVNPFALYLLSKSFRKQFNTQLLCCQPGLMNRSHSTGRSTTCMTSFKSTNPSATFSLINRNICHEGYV

| Structure (SMILES) | tested on | test | test system | setting | scale | measurement | value |
| --- | --- | --- | --- | --- | --- | --- | --- |
| CCCC[C@H](NC(=O)CCCCCCCNC(=O)c1ccc(NN)nc1)C(=O)N[C@H]1CC(=O)NCCCC[C@@H](C(N)=O)NC(=O)[C@H](Cc2c[nH]c3ccccc23)NC(=O)[C@H](CCCNC(=N)N)NC(=O)[C@@H](Cc2ccccc2)NC(=O)[C@H](Cc2c[nH]cn2)NC1=O [technetium-99m labelled] | – | – | C57 mouse, B16/F1 melanoma, brain | 2 h, with: L-lysine 12 mg co-injected | – | tissue uptake | 0.03 ± 0.01 %ID/g |
| N=C(N)NCCC[C@@H]1NC(=O)[C@H](CCCCNC(=O)CNC(=O)CNC(=O)CNC(=O)CC[C@H](NC(=O)CCOCCOCCOCCOCCNC(=O)CC[C@H](NC(=O)CN2CCN(CC(=O)O)CCN(CC(=O)O)CCN(CC(=O)O)CC2)C(=O)NCCOCCOCCOCCOCCC(=O)N[C@@H](CCC(=O)NCC(=O)NCC(=O)NCC(=O)NCCCC[C@@H]2NC(=O)[C@@H](Cc3ccccc3)NC(=O)[C@H](CC(=O)O)NC(=O)CNC(=O)[C@H](CCCNC(=N)N)NC2=O)C(=O)NCC(=O)NCC(=O)NCC(=O)NCCCC[C@@H]2NC(=O)[C@@H](Cc3ccccc3)NC(=O)[C@H](CC(=O)O)NC(=O)CNC(=O)[C@H](CCCNC(=N)N)NC2=O)C(=O)NCC(=O)NCC(=O)NCC(=O)NCCCC[C@@H]2NC(=O)[C@@H](Cc3ccccc3)NC(=O)[C@H](CC(=O)O)NC(=O)CNC(=O)[C@H](CCCNC(=N)N)NC2=O)NC(=O)[C@@H](Cc2ccccc2)NC(=O)[C@H](CC(=O)O)NC(=O)CNC1=O [indium-111 labelled] | – | – | female athymic nude mice, brain | intravenous, 3 µCi, 72 h, U-87 MG glioma xenograft | – | tissue uptake | 0.04 ± 0.02 %ID/g |
| N=C(N)NCCC[C@@H]1NC(=O)[C@H](CCCCNC(=O)c2ccc(CNC34CNCCNCC(NCc5ccc(C(=O)NCCCC[C@@H]6NC(=O)[C@@H](Cc7ccc(O)cc7)NC(=O)[C@H](CC(=O)O)NC(=O)CNC(=O)[C@H](CCCNC(=N)N)NC6=O)cc5)(CNCCNC3)CNCCNC4)cc2)NC(=O)[C@@H](Cc2ccc(O)cc2)NC(=O)[C@H](CC(=O)O)NC(=O)CNC1=O [copper-64 labelled] | – | HPLC | nude mouse, U-87 MG xenograft, blood | 1 h post injection | – | intact compound | > 95% |
| N=C(N)NCCC[C@@H]1NC(=O)[C@H](CCCCNC(=O)CCOCCOCCOCCOCCNC(=O)CC[C@H](NC(=O)CCOCCOCCOCCOCCNC(=O)CC[C@H](NC(=O)CN2CCN(CC(=O)O)CCN(CC(=O)O)CCN(CC(=O)O)CC2)C(=O)NCCOCCOCCOCCOCCC(=O)N[C@@H](CCC(=O)NCCOCCOCCOCCOCCC(=O)NCCCC[C@@H]2NC(=O)[C@@H](Cc3ccccc3)NC(=O)[C@H](CC(=O)O)NC(=O)CNC(=O)[C@H](CCCNC(=N)N)NC2=O)C(=O)NCCOCCOCCOCCOCCC(=O)NCCCC[C@@H]2NC(=O)[C@@H](Cc3ccccc3)NC(=O)[C@H](CC(=O)O)NC(=O)CNC(=O)[C@H](CCCNC(=N)N)NC2=O)C(=O)NCCOCCOCCOCCOCCC(=O)NCCCC[C@@H]2NC(=O)[C@@H](Cc3ccccc3)NC(=O)[C@H](CC(=O)O)NC(=O)CNC(=O)[C@H](CCCNC(=N)N)NC2=O)NC(=O)[C@@H](Cc2ccccc2)NC(=O)[C@H](CC(=O)O)NC(=O)CNC1=O [indium-111 labelled] | – | – | athymic nude mice, female, U-87 MG glioma xenograft, tumour and kidney | intravenous, 4 h | reference: tumour over kidney | tumour to tissue ratio | 1.52 ± 0.43 |
| CCCNC(=O)[C@H](CC(C)C)NC(=O)[C@H](Cc1c[nH]cn1)NC(=O)CNC(=O)[C@@H](NC(=O)[C@H](C)NC(=O)[C@H](Cc1c[nH]c2ccccc12)NC(=O)[C@H](CCC(N)=O)NC(=O)[C@@H](Cc1ccccc1)NC(=O)CCCCCNC(=O)CN1CCN(CC(=O)O)CCN(CC(=O)O)CCN(CC(=O)O)CC1)C(C)C [indium-111 labelled] | Gastrin-releasing peptide receptor (Mus musculus, UniProt P21729) | biodistribution | CF-1 mice, bladder | intravenous, 1 h, unblocked | – | tissue uptake | 0.99 ± 0.69 %ID/g |
| CSCC[C@H](NC(=O)[C@H](CC(C)C)NC(=O)[C@H](Cc1c[nH]cn1)NC(=O)CNC(=O)[C@@H](NC(=O)[C@H](C)NC(=O)[C@H](Cc1c[nH]c2ccccc12)NC(=O)[C@H](CCC(N)=O)NC(=O)CNC(=O)[C@H](CO)NC(=O)CNC(=O)CCCCCCCNC(=O)CCC(=O)Nc1ccc(CNC23CNCCNCC(N)(CNCCNC2)CNCCNC3)cc1)C(C)C)C(N)=O [copper-64 labelled] | – | – | female SCID mice, PC-3 xenograft, kidney | intravenous, 0.6 MBq, 4 h | – | tissue uptake | 5.53 ± 0.459 %ID/g |
| N[C@@H](Cc1ccc(O)cc1)C(=O)N[C@@H](Cc1ccccc1)C(=O)N[C@@H](Cc1ccccc1)C(=O)NCC(=O)NC12CC3CC(CC(C3)C1)C2 | – | – | mouse | intravenous, 100 µg, day 14 | reference: untreated mice | organ coefficient | no effect |
| COC(=O)[C@H](CSSC(C)(C)[C@H](NC(=O)[C@H](CCC(=O)NC[C@H](O)[C@@H](O)[C@H](O)[C@H](O)CO)NC(=O)[C@H](CCC(=O)O)NC(=O)[C@H](CCC(=O)NC[C@H](O)[C@@H](O)[C@H](O)[C@H](O)CO)NC(=O)[C@H](CCC(=O)O)NC(=O)[C@H](CCC(=O)NC[C@H](O)[C@@H](O)[C@H](O)[C@H](O)CO)NC(=O)CC[C@H](NC(=O)c1ccc(NCc2cnc3nc(N)[nH]c(=O)c3n2)cc1)C(=O)O)C(=O)O)NC(=O)CC[C@H](NC(=O)c1ccc(NCc2cnc3nc(N)[nH]c(=N)c3n2)cc1)C(=O)O | – | – | Lewis rat, female, plasma | subcutaneous, 500 nmol/kg | – | AUC(0-last) | 1.02 µM·h |
| N=C(N)NCCC[C@@H]1NC(=O)[C@H](CCCCNC(=O)CC[C@H](NC(=O)CCOCCOCCOCCOCCNC(=O)CN2CCN(CC(=O)O)CCN(CC(=O)O)CCN(CC(=O)O)CC2)C(=O)NCCCC[C@@H]2NC(=O)[C@@H](Cc3ccccc3)NC(=O)[C@H](CC(=O)O)NC(=O)CNC(=O)[C@H](CCCNC(=N)N)NC2=O)NC(=O)[C@@H](Cc2ccccc2)NC(=O)[C@H](CC(=O)O)NC(=O)CNC1=O [indium-111 labelled] | – | – | female athymic nude mice, liver | intravenous, 3 µCi, 72 h, U-87 MG glioma xenograft | – | tissue uptake | 0.78 ± 0.34 %ID/g |
| CCCC[C@H](NC(=O)CNC(=O)CNC(=O)c1ccc(NN)nc1)C(=O)N[C@H]1CC(=O)NCCCC[C@@H](C(N)=O)NC(=O)[C@H](Cc2c[nH]c3ccccc23)NC(=O)[C@H](CCCNC(=N)N)NC(=O)[C@@H](Cc2ccccc2)NC(=O)[C@H](Cc2c[nH]cn2)NC1=O [technetium-99m labelled] | – | – | C57 mouse, B16/F1 melanoma-bearing, blood | intravenous, 24 h | – | tissue uptake | 0.03 ± 0.01 %ID/g |
| CSCC[C@H](NC(=O)[C@H](CC(C)C)NC(=O)[C@H](Cc1c[nH]cn1)NC(=O)CNC(=O)[C@@H](NC(=O)[C@H](C)NC(=O)[C@H](Cc1c[nH]c2ccccc12)NC(=O)[C@H](CCC(N)=O)NC(=O)CCCCCNC(=O)CNC(=O)CNC(=O)CNC(=O)CSC(C)=O)C(C)C)C(N)=O [technetium-99m labelled] | – | – | Swiss mouse, lung | intravenous, 18.5 MBq, 5 min | – | tissue uptake | 1.56 ± 0.33 %ID/g |

Some of these lines once more:
| Structure (SMILES) | tested on | test | test system | setting | scale | measurement | value |
| --- | --- | --- | --- | --- | --- | --- | --- |
| N=C(N)NCCC[C@@H]1NC(=O)[C@H](CCCCNC(=O)CC[C@H](NC(=O)CCOCCOCCOCCOCCNC(=O)CN2CCN(CC(=O)O)CCN(CC(=O)O)CCN(CC(=O)O)CC2)C(=O)NCCCC[C@@H]2NC(=O)[C@@H](Cc3ccccc3)NC(=O)[C@H](CC(=O)O)NC(=O)CNC(=O)[C@H](CCCNC(=N)N)NC2=O)NC(=O)[C@@H](Cc2ccccc2)NC(=O)[C@H](CC(=O)O)NC(=O)CNC1=O [indium-111 labelled] | – | – | female athymic nude mice, liver | intravenous, 3 µCi, 72 h, U-87 MG glioma xenograft | – | tissue uptake | 0.78 ± 0.34 %ID/g |
